Results collected from several papers.
Numbered parts are unrelated; each lists some results of a single study.

Series 1 — technique: RNA Bind-n-Seq; form: RNA; medium: in vitro; concentration: 365 nM; relative to: no-protein control; reading: higher = stronger binding
Target: RNA binding protein fox-1 homolog 2, RRM domain, GST-SBP tag (RBFOX2, Homo sapiens, UniProt O43251-10, residues 100-194)
Notes: natural RNA segment, single round, ends assumed
Shared flanks, not repeated: GGGAGUUCUACAGUCCGACGAUC … UGGAAUUCUCGGGUGCCAA
Construct (chain): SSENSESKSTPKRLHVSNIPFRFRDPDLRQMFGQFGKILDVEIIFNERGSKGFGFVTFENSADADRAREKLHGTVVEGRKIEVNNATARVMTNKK
Sequence	RBNS enrichment (R)
GUGCAAUCAGCUUUCAUUUCCUUUUUCUUGAAAACAUACGACUAUAUAGAAAGAAAGACAAUAAGAACACGAGAAACGCCCCCCCCCACCCCCCGGCAUCCUGGAGAGCA	8.35
UCAUUGACAGAGGAGGAAACAGGCCAAGGCAGGACAUGGCUGGACCAUGGUGAUACAGCUCUGUGUGAUUCAAGUUCUGGCAGAGCUUGUAAGGCUAGAGCCCAGGUCUG	0.446
AUAAUAGUUCCAAUGUAUUGGCAUAAUUUGUUUGAAUGUCUUUAUUUUGAUAUUAACACCGGCAUAAAUCUAUUUUUGCUACCAGAUGAUAGCUAUUUUCAUUUGCUCUA	0.561
ACAGUCCAAAGAGACUUUGCAAAACAUGAUAGGCAGGGACCUUUUCCUCUGUGUUUCAAUACCUAUAUACCUAUUGAACAAAGCAGUAGGUAGACAUUUCCUAAAGUUGA	0.29
AAAGUAACAUCUCCAGAUGAGAAUUUGAAACAAGAAACAGAGUGUUGUAAAAGGACACCUUCACUGAAGCAAGUCGGAAAGUACAAUGAAAAUAAAUAUUUUUGGUAUUU	0.386
CGUGUAGGUGCCACGGCUCCACUCUGUUCCUCUCUGCUUUGUUCUUCCCUGGACUGAGCUCAGCGCAGGCUGUGACCCCAGGAGGGCCCUGCCACGGGCCACUGGCUGCU	0.358
UCUCUCUCUGUUGAGUAACCUCUCAAGGACCAGAGUGGAGUCCAGAUUGUUAGGCUCAGAUCAAGGGUGGGGAAAUACUGCCCUCUCGUGGUGGCUUUUCAUCCAGGCCU	0.165
ACCCAGUAGAGCUUGAAGCUGACCUUUCUGAGAAGUUGGUAUGGUGUAACACUAAAGUAGGUGGUUCGUGUGUGUUCUCAUUACCUGGUUAUGAUAGAUAUGCACAUCAA	0.495
CUUUCACGUUGUUUUCGCUGCUAUUGGAGGGUCAGUUUUGUUUUGUUUUGUUUUACAAUGUCAGACUGCCAUGUUCAAGUUUUAAUUUCCUCAUAGAGUGUAUUUACAGA	0.977
CUGUGCUGAGGGAGCCUGAGUGGGAGACCGCCAGCCCCAGAAGCAGAGGGCAGUCAAGGUCAAGAGCCUGUGGUCCAGCAUGCCUGGCCUGGGCGGGCUACCUCUGAGAA	0.373
ACUCAUCCAAUGCAGAGUCUCGCUCCUAGCUGCCUACCCGAGAUCCCUUGCUUCAACCUCCCCAGGUGGGGGACCUGGCCUCUGCCUAAAUGCUUCUGGAGACGGAAACA	0.197
GAAAGCAGGUUCUGUGGGACCCCCCGCCCCGCCCCCCGCACUCCUUCAUAGCAGCAGUAGUGGCUUCUCCAUCCUGUUUUCUGCAACAUUCUAUACAAAACUGUGCUGUG	0.498

Series 2 — technique: universal PBM; form: double-stranded DNA, one strand shown; medium: in vitro; concentration: 600 nM; reading: higher = stronger binding
Target: Sal-like protein 4, full length isoform A (SALL4, Homo sapiens, UniProt Q9UJQ4, residues 1-1053)
Sequence of UniProt Q9UJQ4 (whole entry, looked up): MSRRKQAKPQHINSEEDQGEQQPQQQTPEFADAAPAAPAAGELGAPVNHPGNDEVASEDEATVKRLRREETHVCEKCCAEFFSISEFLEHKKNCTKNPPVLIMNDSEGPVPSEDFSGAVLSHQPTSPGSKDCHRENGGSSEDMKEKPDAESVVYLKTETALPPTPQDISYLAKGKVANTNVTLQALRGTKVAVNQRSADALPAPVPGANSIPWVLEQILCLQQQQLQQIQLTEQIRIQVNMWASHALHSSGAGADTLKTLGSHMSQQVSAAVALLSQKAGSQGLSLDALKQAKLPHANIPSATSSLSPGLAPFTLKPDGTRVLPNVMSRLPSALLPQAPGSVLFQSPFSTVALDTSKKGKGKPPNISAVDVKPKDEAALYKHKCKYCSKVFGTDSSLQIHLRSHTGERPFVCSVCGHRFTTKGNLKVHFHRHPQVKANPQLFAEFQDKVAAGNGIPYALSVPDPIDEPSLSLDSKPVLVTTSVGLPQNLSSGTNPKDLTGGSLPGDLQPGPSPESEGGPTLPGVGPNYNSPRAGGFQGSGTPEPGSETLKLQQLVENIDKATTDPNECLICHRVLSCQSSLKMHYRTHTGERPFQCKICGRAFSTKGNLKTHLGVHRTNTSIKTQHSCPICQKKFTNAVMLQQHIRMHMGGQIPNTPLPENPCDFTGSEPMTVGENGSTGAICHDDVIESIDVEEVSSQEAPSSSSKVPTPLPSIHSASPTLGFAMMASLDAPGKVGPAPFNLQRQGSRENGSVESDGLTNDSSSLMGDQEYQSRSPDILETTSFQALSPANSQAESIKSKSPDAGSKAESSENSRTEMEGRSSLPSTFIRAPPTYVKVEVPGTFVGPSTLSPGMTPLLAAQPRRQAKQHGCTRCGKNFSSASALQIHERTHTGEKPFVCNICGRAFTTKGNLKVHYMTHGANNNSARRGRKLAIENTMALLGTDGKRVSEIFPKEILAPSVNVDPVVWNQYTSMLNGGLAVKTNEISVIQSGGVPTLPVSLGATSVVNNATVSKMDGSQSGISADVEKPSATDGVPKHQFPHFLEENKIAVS
Notes: 8-mer, flanks averaged, mean of replicates
Sequence	E-score
AGTACGCG	-0.0206
CAGTGCAA	-0.0166
ACCGAGGA	-0.182
ATTTGCGG	0.145
CGAAGGGC	-0.274
ACTACTCT	-0.0184
GGTCATGA	0.0539
ACACTAGC	-0.0975
AATAGCTA	0.307
AGGTTAGG	-0.07
ACCTGAAG	0.0146
CACCCTTC	-0.138
GCCATAGC	-0.0253
CCTGTACG	-0.141
GCACGGAC	-0.273
AGCAGGTA	-0.00353
AATGATAA	0.37
ATTGCTGC	-0.0442
CGACGTAC	-0.0985
AATCAAAT	0.267
AAGCATCC	-0.0402
CTGAGGTA	0.0374

Series 3 — technique: protein-binding microarray; form: double-stranded DNA, one strand shown; medium: in vitro; concentration: 0.8 µM; notes: whole 60-bp probe, no competitor; reading: higher = stronger binding; shared flanks, not repeated: … GTCTTGATTCGCTTGACGCTGCTG
Target: Centromere-binding protein 1, full length, N-terminal tag (CBF1, Saccharomyces cerevisiae, UniProt P17106, residues 1-351)
Sequence of UniProt P17106 (whole entry, looked up): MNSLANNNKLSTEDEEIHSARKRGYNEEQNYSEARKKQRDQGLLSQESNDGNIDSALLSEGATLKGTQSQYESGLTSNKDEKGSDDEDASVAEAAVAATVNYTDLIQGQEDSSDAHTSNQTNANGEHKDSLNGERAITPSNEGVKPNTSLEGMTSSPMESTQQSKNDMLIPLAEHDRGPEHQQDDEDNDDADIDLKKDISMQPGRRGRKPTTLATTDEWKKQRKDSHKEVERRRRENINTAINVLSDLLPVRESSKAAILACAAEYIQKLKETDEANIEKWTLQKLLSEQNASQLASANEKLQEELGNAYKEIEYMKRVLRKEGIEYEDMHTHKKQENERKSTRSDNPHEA
Sequence	fluorescence intensity [a.u.]
CCTAACTACTATAGTCACGTGAAATAGCTTCGTACA	15700
GAACCGGATCGTAGTCACATGATCAAATAAATTTAG	14400
CTAAATGCCTTTGTCCATGTGATAAACCGTGCATTC	1100
CCTAACTACTATAAAGAGGTGACATAGCTTCGTACA	505
GAATTAATTTTGCATCGGGTGATAACAACACCGTAG	568
CTATTGCAATATCATGATGTTATAGAGTAACGTTTC	538
CTACTGTGATGTGCAGTGATGGCGAATAGGGTGTTC	553
GAACACTCAATGTGTGGCGTGTGTGAATTTTAATAG	526
GAAGAGAGCGGCTTACATCAGACATCTTTTCTCTAG	510
CTATCTGCTCCGCATCACGATACACGAGGTGCATTC	1370
GAACGCGATGTTGCAAGCGTGACAGATCTATACTAG	718
GAAATAAGGCAGAGGAGCGTCACCGGTAACCCTTAG	475
CTAGAAAGCGCACATGTGATATCTCGCAATTTCTTC	1680
CTAAAAGATAGGGCTAACATCACAAGATTCCCATTC	526
CTATTTTGTTACTGTCATGTGAATAAAACTTATTTC	1470
CTAAACATCGTTAAACACGCCATATCAGACTAATTC	545
GAATCGACACTCAACGTGATAATCAAAAGGCAATAG	1050
CTAGGACATTATAACAACGTGCAGATGGTGATGTTC	674
GAAATACCTTTGTTCAAGGTGGCGTTTGCCGTATAG	533
CTATCATGTTGTTATCACCCCACGACGAAGATATTC	555
GAATGGAAATAATCGATCACCATCGTTGCCTCTTAG	489
CCTAACTACTATAGTGAGTTCAAATAGCTTCGTACA	472
CTAATGTAAGGATAGAACGTGAAGATCGAGAAATTC	583
CTAGACTAAAGAAGTGGTGTGAGTATAATTAACTTC	538
GAAGGAAATCGTGGTTCCGTCATGCCCATACTATAG	548

Series 4 — technique: RNA Bind-n-Seq; form: RNA; medium: in vitro; concentration: not given; notes: RNA with constant flanks, ends assumed; relative to: input RNA pool; reading: higher = stronger binding
Target: RING finger protein unkempt homolog, zinc fingers 1-6, GST-SBP tag (UNK, Homo sapiens, UniProt Q9C0B0, residues 30-357)
Sequence of UniProt Q9C0B0 (30-357, looked up): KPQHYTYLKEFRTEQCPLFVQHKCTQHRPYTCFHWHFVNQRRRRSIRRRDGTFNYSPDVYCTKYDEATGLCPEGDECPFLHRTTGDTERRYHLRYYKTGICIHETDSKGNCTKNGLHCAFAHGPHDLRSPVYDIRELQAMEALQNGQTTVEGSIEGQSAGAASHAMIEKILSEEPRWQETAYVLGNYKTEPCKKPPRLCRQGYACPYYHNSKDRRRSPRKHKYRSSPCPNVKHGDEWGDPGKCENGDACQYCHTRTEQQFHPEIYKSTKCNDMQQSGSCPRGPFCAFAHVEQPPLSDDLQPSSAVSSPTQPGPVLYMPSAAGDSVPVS
Shared flanks, not repeated: GGGAGUUCUACAGUCCGACGAUC … CAACAGAGGAUUGAGCAUCA
Sequence	bound/input enrichment [ratio]
UCAUCGACCACCAUGACAACACCUACACAGUCAAGUACACGCCUGUCCAGCAGGGUCCAGCCGGCGUCAAUGUCACUUAUGGAGGGGAUCCCAUCCCUAAGAGCCCUUUCUCAGUGGCAG	0.227
GAAGAGAAUUAUGGUGUGGUGUCCACAUAUGAUAGCAGUUUAUCUUCAUAUACGGUUCCUUCCGAAAGGGACAACUCAGAAGAAUUUCUUAAACGGGAGGCAAGGGCAAACCAGUUAGCA	0.924
UCUGCUCCUGGAAAAGAGAAAAGUGAAACUGAUAAGGAAACUUCUUUGGUAAAGCAAACAUCCGCAAAACUUCAACAACAAGAACAAAGGGAGGAGGCUCAGUGGACACCUACUAAAUUG	0.268
UGUGGCGAUUCAGAUAAAGGAUUUGUUGUUAUUAAUCAAAAGGGAAUUGACCCCUUUUCCUCCGAUGCUCUUUCAAAAGAAGGCAUAGUUGCUCUGCGCAGAGCUAAAAGGAGAAAUAUG	0.257
UGAUGACUGCAUAGCAAACUGGCAGAUACAGUCCCCAUGGUCAGUGGCUGACCAGGGUGUCACCGGCGCGAUCUCAAUUGCUAGAUGUGAGCACACGCUUGACAGUCUGUUUAGAAAUGU	0.218
GCUCCAAACCAGUUCUUCUGCAGAGUGGUGAUGUUAGCUUCCCCAGCUCCUCUCCAAGUCCCGCUUUUUCUGUCCUUCUGGCUCCAAGGUGCUCUGUGUCUGUGUGUGUGUGUCUGUCUG	0.842
CGAGCAGUGGAGUGUUGUGUGAGGUUGCUUCAUGUGCGAAAUGGAAAUUGUAAAUAUCAUCCCGGUGAAGAAACAUUUAAAUUAGCUCAGACAUACAUGGAUAAGCUGUCUAAACAUGGC	0.371
AUUUUCUAGGAUGUCUUCUGAGAUAGGAAGGGAGAAGAGCCAGGACUGGGGGUCAGCUGGACCCGGUGGAGUAUUUAAAGUGGAGUGGAUACGCAAAGAAAGCCUUCCCUUUCAGUUUGC	0.39
CUAAACUGUCAUUCACAACUUGGCUACACAUAGACUCUAGUCAGUUUUGUCUCCAGAACCUCCGGCUUUUGUAUUUUUUAAUUUUAAUUUCACUGUUAAUCCUUAUUGUCUUUUUUAUUA	19
UGUCACUGUGGGUAUAUCUUAUGCAUGUCAUUCAAUUGGUCAGAUUGGUUCUGUAUGGUUUUCCGUGGGCAUACAAACUAGUUAGUUCUUUUCACUUAAAUUUUAAAGGAGGAAGUUACC	2.2
CUUCUGCAGCUCAUCUCAUGCCUGCAGUGCCGGCGGUGUCCCCAUUACUUCUUACCGAACUCCGAUCUGUUUCAAGGCAAACCCCACUCGGCCUUGGAAAACGCUGCUAAACAAACGUGG	0.182

Series 5 — technique: protein binding microarray; form: double-stranded DNA, one strand shown; medium: in vitro; concentration: not given; relative to: not given; reading: higher = stronger binding
Target: Histone acetyltransferase KAT6A, winged helix 1, GST fusion (KAT6A, Homo sapiens, UniProt Q92794, residues 1-85)
Notes: 8-mer, flanks averaged, mean of 2 arrays, mostly near background
Residues (chain): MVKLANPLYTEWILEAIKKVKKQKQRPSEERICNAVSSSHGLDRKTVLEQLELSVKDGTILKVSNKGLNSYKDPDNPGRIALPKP
Sequence	E-score
GTGCAAAA	-0.199
ATGCCCTG	-0.0712
GCAAGCAA	-0.0671
ACTCTTAT	-0.253
GGCGGAAC	0.346
CTAATAAA	-0.044
AAGCCAAC	-0.033
TGAAAAAA	-0.179
AACCTTTC	-0.163
CTTCCGAC	0.107
CGACAAAC	0.101
CAATCAAC	-0.0374
CGGTCAGC	0.26
ACCTCAGG	-0.063
TGTGTCAA	-0.214
AGCAAACG	-0.12
ACGGGCAC	0.161
TATCGCGA	0.146
AAACTAAG	-0.168
AGTGCCGG	0.308
CCATAGGG	-0.23
CGAGAAAA	-0.134
CTCTTTGA	-0.147
AATTCGCA	0.045
CGATTGCG	0.277
